Measured values from different studies.
± marks the error that the study gave.

Compound | test | system | setting | scale | measurement | result
CCN1/C(=C/C(C)=O)Sc2ccc(F)cc21 |  | cynomolgus monkey | oral, 100 mg/kg, 0.5 h post-dose | baseline: pre-dose | heart rate change | 134 ± 9.1%
C[C@@H]1CN(c2c(F)c(N)c3c(=O)c(C(=O)O)cn(C4CC4)c3c2F)C[C@H](C)N1 |  | male Hartley guinea pigs, anaesthetized | intravenous, 3 mg/kg group, baseline before infusion |  | heart rate | 238 ± 0.5 beats/min
CCCCOC(=O)N1CCN(C(=O)[C@H](CP(=O)(O)O)NC(=O)c2cc(N3CC[C@H](OC)C3)nc(-c3ccccc3)n2)CC1 |  | human | subcutaneous, 8 mg, 1 h post-dose | baseline: baseline | change in QTcB interval | -3.1 ± 21.6 ms
O=C(CCCCCCC(=O)Nc1ccc(CC[18F])cc1)NO |  | athymic nu/nu male mice, LNCaP xenograft, brain | intravenous, 0.5 h |  | tissue uptake | 1 ± 0.12 %ID/g
CN(C(=O)n1cnc(-c2cccnc2)c1)C1CCCCC1 |  | Wistar rat, pons | oral, 10 mg/kg, 24 h, single dose |  | tissue concentration | 8 ± 0.1 ng/g
CCC(=O)N(CCC(c1ccc2c(c1)OCO2)c1ccccc1OC)Cc1ccccc1 (centres unmarked) |  | female athymic nude mouse, blood | i.p., 60 mg/kg twice daily, 14 days, group mean |  | NEUT | 25.4%
C[C@@H](N)C1CCN(S(=O)(=O)c2cccc3cnccc23)CC1 |  | healthy volunteers | 25 mg and 250 mg combined, fasted |  | treatment-related TEAEs | 33.3%
CC(=O)N(C)C1CCN(c2cc(F)cc(NC(=O)c3cc4c(F)ccc(C)c4[nH]3)c2)C1 (centres unmarked) |  | CD1 mouse, plasma | intravenous, 1 mg/kg, 7 h |  | plasma concentration | 0.716 ng/mL
O=C(N[C@H](Cc1c[nH]c2ccccc12)C(=O)Nc1ccncc1)c1ccc(N2CCN(c3ccc(F)cc3F)CC2)cc1F |  | Swiss Webster mouse, female, plasma | oral, 50 mg/kg, 2 h, 20% Kolliphor vehicle |  | concentration | 4.37 µM
CNCc1ccc(-c2[nH]c3cc(F)cc4c3c2CCNC4=O)cc1 |  | patients | oral, 240 mg twice daily, all grades |  | anaemia incidence | 0%
O=c1c(O)c(-c2ccc(O)cc2)oc2cc(O)cc(O)c12 |  | human CSF | concentration not given, mean |  | CSF concentration | not detected
C[C@@H](Nc1cc(F)cc(F)c1)c1cc(C(=O)N(C)C)cc2c(=O)cc(N3CCOCC3)oc12 |  | human | oral, 60 mg twice daily, 5:2 schedule, steady state, geometric LSM, together with: abiraterone 1000 mg |  | AUC(tau) | 1560 ng·h/mL
COc1ccnc(C(=O)NC(CO)C(=O)O)c1O (racemic) | aerobic dark soil incubation | soil | geometric mean of 4 soils, persistence endpoint |  | DT50 | 1.2 days
Cn1cc(Nc2nccc(-c3ccc4c(c3)CN(C3COC3)CC[C@H]4NC(=O)c3cn(C(C)(C)C)nn3)n2)cn1 |  | human, whole blood | 300 mg twice daily, day 7 | baseline: pre-dose baseline | non-switched memory B cell change | 49.6%
Cc1cc(OCCOCCC(F)(F)P(=O)(O)O)ccc1CCc1cnc2c(N)nc3cc(CCC(=O)O)ccc3c2c1 |  | human, serum | intratumoral, 400 µg every 2 weeks, cycle 1 day 1 |  | AUC(tau) | 64.5 ng·h/mL
C=CC(=O)Nc1cc(Nc2nccc(-c3cn(C)c4ccccc34)n2)c(OC)cc1N(C)CCN(C)C | storage stability | human plasma | 10 d, -80 °C, HQC level |  | recovery | 94.8%
CN[C@@H]1COc2c(S(=O)(=O)NC(=O)Nc3c4c(cc5c3CCC5)CCC4)cnn2C1 |  | human, plasma | oral, 900 mg twice daily, D10 |  | predose plasma concentration | 4300 ng/mL
Cc1cc(-c2nnc(N)nc2-c2ccc(F)cc2)cc(Cl)n1 | measured: Diarrhea | human phase Ia/Ib colorectal cancer, immunotherapy-naive | oral, dose not given |  | patients with treatment-related adverse events | 8%
COc1ncc(-c2nc3c(n2C(C)C)[C@H](c2ccc(Cl)cc2)N(c2cc(Cl)cn(C)c2=O)C3=O)c(OC)n1 |  | human patients, plasma | oral, 200 mg, high-dose arm, cycle 1 day 1 |  | median half-life | 18.5 h
[18F]c1ccc(-c2ccc3c(c2)[nH]c2ccncc23)cn1 | ex vivo biodistribution | B6SJL mouse, normal, thalamus | intravenous, 30 min |  | SUV | 0.453 ± 0.155
CC(C)C[C@H](NC(=O)[C@@H](Cc1c[nH]c2ccccc12)NC(=O)[C@H](Cc1ccc(O)cc1)NC(=O)[C@H](CO)NC(=O)[C@H](Cc1c[nH]c2ccccc12)NC(=O)[C@H](Cc1c[nH]cn1)NC(=O)[C@@H]1CCC(=O)N1)C(=O)N[C@@H](CCCNC(=N)N)C(=O)N1CCC[C@H]1C(=O)NCC(N)=O |  | Chinese CPP children, boys | intramuscular, 22.5 mg, 12 months, day 1, month 6 |  | patients, drug-related reproductive TEAEs | 25%
CCCCCCC#Cc1cncc(-c2nnc(SCc3ccc([N+](=O)[O-])o3)n2C2CC2)c1 |  | African green monkey cells | 72 h |  | CC50 | 7.8 ± 0.476 µM

Compound | test | system | setting | scale | measurement | result
COc1ccc2nc([S@@+]([O-])Cc3ncc(CO)c(OC)c3C)[nH]c2c1 |  | human, dried plasma spots | 5 mg racemic omeprazole | baseline: baseline | AUC(0-8 h) | 0.0174 µM·h
O=C(O)CCc1ccc(O)c(O)c1 |  | human CSF | concentration not given, mean |  | CSF concentration | not detected
OCCOCc1ccc(-c2noc(-c3ccc(OCC[18F])c(C(F)(F)F)c3)n2)cc1 | radio-HPLC | Macaca mulatta, arterial plasma | 180 min, radiotracer |  | parent fraction in plasma | 17 to 18%
O=C(Nc1ccc(OC(F)(F)Cl)cc1)c1cnc(N2CC[C@@H](O)C2)c(-c2ccn[nH]2)c1 | per patient, measured: hemoglobin decrease | human patients | oral, dose not given, dose-finding study |  | grade ≥3 event rate | 7.1%
CO[C@H]1C[C@@H]2CC[C@@H](C)[C@@](O)(O2)C(=O)C(=O)N2CCCC[C@H]2C(=O)O[C@H]([C@H](C)C[C@@H]2CC[C@@H](OC(=O)NCCOCCOCCOCCOCCOCCOCCOCCOCCC(=O)N3CCc4cc(Cn5nc(-c6ccc7oc(N)nc7c6)c6c(N)ncnc65)ccc4C3)[C@H](OC)C2)C[C@@H](O)[C@H](C)/C=C(\C)[C@@H](O)[C@@H](OC)C(=O)[C@H](C)C[C@H](C)/C=C/C=C/C=C/1C |  | human patients, plasma | intravenous, 8 mg, cycle 1 day 15, weekly dosing, mean |  | AUClast | 0.466 µM·h
CCO[C@H]1CCN(Cc2c(OC)cc(C)c3[nH]ccc23)[C@H](c2ccc(C(=O)O)cc2)C1 | measured: abdominal pain | PNH patients with active haemolysis | oral, 200 mg, extension phase |  | adverse event incidence | 0%
Cc1cc(NC2CCN(C(=O)OC3CCN(C(=O)/C=C/CN(C)C)C3)CC2)n2ncc(C(C)C)c2n1 (centres unmarked) |  | patients with advanced solid tumours | dose not given, QD arm, any grade |  | patients with Dizziness | 12%
CNC(=O)c1ccc(-c2cnc3ncc(Cc4ccc5ncccc5c4)n3n2)cc1F | measured: Dizziness | gastric cancer patients | oral, 600 mg twice daily, expansion cohort, grade 3-4 |  | patients with adverse event | 0%
O=C1CCc2ccc(OCCCCN3CCN(c4cccc(Cl)c4Cl)CC3)cc2N1 |  | CYP2D6 ultrarapid metabolizers | concentration not given, genotype-based phenotype, long-acting oral or depot |  | cardiovascular symptom frequency | 15%
CC/C(=C(\c1ccccc1)c1ccc(OCCN(C)C)cc1)c1ccccc1 |  | male Hartley guinea pigs, anaesthetized | intravenous, 3 mg/kg over 10 min, after infusion |  | heart rate | 222 ± 0.6 beats/min
O=C(Nc1nc2cccc(-c3ccc(CN4CCS(=O)(=O)CC4)cc3)n2n1)C1CC1 | measured: gastrointestinal disorders | human rheumatoid arthritis patients | oral, 300 mg once daily, 4 weeks, regardless of relatedness |  | treatment-emergent adverse events | 15%
CC(C)C[C@H](NC(=O)[C@H](CC(C)C)NC(=O)[C@H](Cc1c[nH]c2ccccc12)NC(=O)[C@H](CCC(=O)O)NC(=O)[C@@H](NC(=O)[C@H](Cc1ccccc1)NC(=O)[C@H](CCC(=O)O)NC(=O)[C@H](CCCCNC(=O)COCCOCCNC(=O)COCCOCCNC(=O)CC[C@H](NC(=O)CCCCCCCCCCCCCCCCCCC(=O)O)C(=O)O)NC(=O)[C@H](C)NC(=O)[C@H](CCCCN)NC(=O)[C@H](CCCCN)NC(=O)[C@H](CCC(=O)O)NC(=O)[C@H](CC(=O)O)NC(=O)[C@H](CC(C)C)NC(=O)[C@H](Cc1ccc(O)cc1)NC(=O)[C@H](CCCCN)NC(=O)[C@H](CO)NC(=O)[C@H](Cc1ccc(O)cc1)NC(=O)[C@H](CC(=O)O)NC(=O)[C@H](CO)NC(=O)[C@@H](NC(=O)[C@H](Cc1ccccc1)NC(=O)[C@@H](NC(=O)CNC(=O)[C@H](CCC(N)=O)NC(=O)C(C)(C)NC(=O)[C@@H](N)Cc1c[nH]cn1)[C@@H](C)O)[C@@H](C)O)C(C)C)C(=O)N[C@@H](CCC(=O)O)C(=O)NCC(=O)NCC(=O)N1CCC[C@H]1C(=O)N[C@@H](CO)C(=O)N[C@@H](CO)C(=O)NCC(N)=O |  | human, plasma | subcutaneous, 16 mg weekly, week 20, cohorts 1 and 2 |  | Cmin,ss | 2940 ng/mL
CN(CCC(=O)O)C(=O)c1ccc2c(c1)CC[C@@H]1[C@@H]2CC[C@]2(C)C(c3cncc(F)c3)=CC[C@@H]12 |  | premenopausal women, endometriosis pain, serum | 60 mg twice daily, visit 5, mean | baseline: baseline | indirect bilirubin change | 0.61 mg/dL
O=C1c2ccncc2C(=O)c2c1[nH]c1ccccc21 |  | Sprague-Dawley rat, female, lung | intravenous, 5 mg/kg, 24 h |  | tissue concentration | 0.444 ± 0.581 nmol/mg
C[Si](C)(C)O[Si](C)(C)C | regression | 1-octanol/water | 25 °C |  | log KOW | 5.2
NC[C@@]1(CC(=O)O)[C@@H]2CC[C@H]3C[C@@H]2[C@@H]1C3 |  | humans with normal renal function, plasma | geometric mean |  | unbound Cmax | 324 ng/mL
CN(CCC#N)C1CCN(C(=O)Cn2cc(NC(=O)c3cnn4cccnc34)c(-c3cc(Cl)ccc3OC(F)F)n2)CC1 |  | human, single ascending dose | 0.5 mg, day 4 | baseline: baseline | reticulocyte count change | 1.7 10⁹/L
COc1c(N2C[C@@H]3CCCN[C@@H]3C2)c(F)cc2c(=O)c(C(=O)O)cn(C3CC3)c12 |  | male Hartley guinea pigs, anaesthetized | intravenous, 5 mg/kg group, baseline before infusion |  | heart rate | 264 ± 0.6 beats/min
CN[C@H](CC(C)C)C(=O)N[C@H]1C(=O)N[C@@H](CC(N)=O)C(=O)N[C@H]2C(=O)N[C@H]3C(=O)N[C@H](C(=O)N[C@H](C(=O)O)c4cc(O)cc(O)c4-c4cc3ccc4O)[C@H](O)c3ccc(c(Cl)c3)Oc3cc2cc(c3O[C@@H]2O[C@H](CO)[C@@H](O)[C@H](O)[C@H]2O[C@H]2C[C@](C)(N)[C@H](O)[C@H](C)O2)Oc2ccc(cc2Cl)[C@H]1O |  | male C57BL/6J mouse, brain | intravenous bolus, 35 mg/kg | baseline: thalamus over hippocampus | absorption rate ratio | > 3.5
NC1(C(=O)N[C@@H](CCO)c2ccc(Cl)cc2)CCN(c2nc[nH]c3nccc2-3)CC1 |  | metastatic CRPC patients | 480 mg b.i.d., any grade, treatment-related, together with: enzalutamide 160 mg daily |  | incidence of Arthralgia | 20%
CC(C)NCC(O)c1ccc(NS(C)(=O)=O)cc1 (racemic) |  | male Hartley guinea pigs, anaesthetized | intravenous, 1 mg/kg group, baseline before infusion |  | heart rate | 246 ± 0.6 beats/min
O=C(COc1ccc(Cl)cc1)NC12CC(c3nnc([C@H]4C[C@@H](OC(F)(F)F)C4)o3)(C1)C2 | measured: Tachycardia | healthy humans, both sexes | oral, 800 mg, single ascending dose | baseline: subjects | treatment-emergent adverse events | 16.7%
